Published values from different studies.
Every numbered part comes from another study and shows a few of its results, in no order.

Study 1
Target: Histone acetyltransferase KAT6A, both winged helices, GST fusion (KAT6A, Homo sapiens, UniProt Q92794, residues 1-181)
Technique: protein binding microarray
Molecule type: double-stranded DNA, one strand shown
Matrix: in vitro
Tested at: not given
Setting: 8-mer, flanks averaged, mean of 2 arrays, mostly near background
Reference: not given
Direction: higher = stronger binding
Measurement: E-score
Residues (chain): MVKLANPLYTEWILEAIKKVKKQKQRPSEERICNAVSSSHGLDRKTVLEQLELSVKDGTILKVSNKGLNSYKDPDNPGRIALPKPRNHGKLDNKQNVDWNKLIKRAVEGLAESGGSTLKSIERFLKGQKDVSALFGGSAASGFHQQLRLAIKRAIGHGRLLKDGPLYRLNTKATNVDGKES
CTCTTAGA: -0.181
CCTCCGCG: 0.291
CAAGATTG: -0.125
CTGCAATA: -0.0834
AGGCGAGA: -0.235
CTATACAG: -0.0952

Study 2
Target: RNA binding protein fox-1 homolog 2, RRM domain, GST-SBP tag (RBFOX2, Homo sapiens, UniProt O43251-10, residues 100-194)
Technique: RNA Bind-n-Seq
Molecule type: RNA
Matrix: in vitro
Tested at: 365 nM
Setting: natural RNA segment, single round, ends assumed
Reference: no-protein control
Direction: higher = stronger binding
Measurement: RBNS enrichment (R)
Target sequence (chain): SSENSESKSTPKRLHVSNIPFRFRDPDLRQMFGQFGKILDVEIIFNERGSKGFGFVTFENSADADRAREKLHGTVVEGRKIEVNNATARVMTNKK
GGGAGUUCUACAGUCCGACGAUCAGGUCCUGAGUUCAGUUCCCAGCAACCACAUGGUGGCUCACACCACCUGUAAUGGGCUCUGACGCCCUCUUCUGAUGUGUGUCUGAAGACAGCUGCAGUGGACUCAUAAGUGGAAUUCUCGGGUGCCAA: 0.247
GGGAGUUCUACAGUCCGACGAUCAUGUAGCAAUUUUUUCCUAAACACAAAAUGGCCUUUUGCUUGUCUGGUAAUGAGAUUGUAAAUCCAUUUCCUGCGUGUGUUCUCCGCAGGCUUGCCUGAGUGUGUGGGGUUGGAAUUCUCGGGUGCCAA: 0.528
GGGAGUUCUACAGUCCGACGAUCUCUGAAUUAAAAUUUGAAACUCUGACCACACUCAGUACCCUACUGUCCCUAUAACUGGGGUUAUCUGACCAUCCAUCUCCCUUCUUUGUUCUGCUUUCUGUUCGGGGUGCUGGAAUUCUCGGGUGCCAA: 0.765
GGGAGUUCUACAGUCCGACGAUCAUUACUUUCCUUGAUCAAAAAAAUUAACACUGGGGAAGGCUGGAAUCACUUGAGGGGACUAUAAUGCAGUAUUUGCACCCCAAGAUAUUUACCUUAAAGUGGAAUCAGAAUGGAAUUCUCGGGUGCCAA: 0.481
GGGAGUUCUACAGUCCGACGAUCAGUGUCAGUGUGGGUAUCAACCUCAAAGUCAGGCACUUGAGCCAUGUGUGGUCCUCCUCCAUCUGGGAUUCAGAAGCCCCUGCCACUGCCUCAGGUCAAGGGGAGGGAGGUGGAAUUCUCGGGUGCCAA: 0.247
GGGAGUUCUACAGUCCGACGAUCGAUGUGUCUGUCUUUGUCACGGUGGACAGAGGGUGACAUCAUAGGAGCAGCUCGCUGGCCAGAAGGGGAUGGGGGCAUCCCUGUGCCUCACUCAGCUCCUGCUGCUCUUAUGGAAUUCUCGGGUGCCAA: 0.51

Study 3
Target: RING finger protein unkempt homolog, zinc fingers 1-6, GST-SBP tag (UNK, Homo sapiens, UniProt Q9C0B0, residues 30-357)
Technique: RNA Bind-n-Seq
Molecule type: RNA
Matrix: in vitro
Tested at: not given
Setting: RNA with constant flanks, human and mouse sites, ends assumed
Reference: input RNA pool
Direction: higher = stronger binding
Measurement: bound/input enrichment
Construct (chain): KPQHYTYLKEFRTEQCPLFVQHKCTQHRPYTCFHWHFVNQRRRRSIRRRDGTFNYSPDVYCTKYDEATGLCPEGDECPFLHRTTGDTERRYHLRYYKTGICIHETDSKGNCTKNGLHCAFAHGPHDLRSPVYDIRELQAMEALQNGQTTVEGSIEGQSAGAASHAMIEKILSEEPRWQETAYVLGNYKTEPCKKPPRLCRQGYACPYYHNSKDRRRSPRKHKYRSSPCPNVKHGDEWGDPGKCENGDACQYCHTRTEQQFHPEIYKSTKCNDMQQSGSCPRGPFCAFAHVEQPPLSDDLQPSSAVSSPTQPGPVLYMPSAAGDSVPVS
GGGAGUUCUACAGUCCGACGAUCGAUCAUGAACCACCAUCAGAAAUGAAGAUGAGAUUACCCAGACGAGCCAAAACAGCUGCGCUACAGAAAAGUAAACUUAACCUUGCAGAGUUCCUUAAUGAAGAUACAAGUUAAGAGAGCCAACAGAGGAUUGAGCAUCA: 0.251 ratio
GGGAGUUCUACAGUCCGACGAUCAAAUUCAUAUACAGUCAAAAACCUUGAACAACUUCUUGAUUGUUUGGGUUUUGUUGUUUUGUUUUAAAUUUUUAAUUUUAUGUAGCCCUGGCUGUCCUGGAACUCACUGUAGACCAGGCUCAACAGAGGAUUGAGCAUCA: 1.26 ratio
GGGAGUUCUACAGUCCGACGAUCACACCCUUGGCCAGCCUUUCUCCUGAAUAUCAGCUACCAAGAUCAGUACCAGUGGUGCCGUCUUUUGUAGCCAAUGACAGAGCAGAUAAAAAUGCUGCUGCCUAUUUUGAGGGUCAUCAUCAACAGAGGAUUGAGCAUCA: 0.0878 ratio
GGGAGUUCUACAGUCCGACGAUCGAUCAGAAUGGAAUGACGCCUUUAAUGUGGGCAGCAUAUAGAACACAUAGUGUGGAUCCAACUAGAUUGCUUUUAACAUUCAAUGUUUCAGUUAACCUUGGUGACAAGUAUCACAAAAACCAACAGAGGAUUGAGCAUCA: 0.557 ratio
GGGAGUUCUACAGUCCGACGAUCCCCCCUCGGAAGAAAAGGGCACGGGCUGACCCCACUGUGGAGAGCGAGGAGGCAUUCAAGAGUAGGAUGGAGGUGAAGGUGAAGAUCCCUGAAGAAUUAAAACCGUGGCUGGUGGAGGACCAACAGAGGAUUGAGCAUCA: 0.602 ratio
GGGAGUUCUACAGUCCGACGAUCUUCUUAAAAAGACACAUGAAGAAUCAUCCUGAUCAUUUAAUGAGAAAAAAAUAUCAGUGUACAGAUUGUGACUUUACAACUAACAAGAAAGUGAGUUUCCAUAACCACUUAGAAAGCCAUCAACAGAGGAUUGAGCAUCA: 0.281 ratio
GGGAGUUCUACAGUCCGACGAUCAAGAUGAUUUUGUGUUUACCUGUGUUCACUUUGUUUCAUGUUGUUGCCACUGUUGGCUGCUAUUGGAGUCUGAUGGAGGGGUCCUUUGCAGGGCAAGUCUGCAAACCCCGUCAGUACCAACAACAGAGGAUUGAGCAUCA: 0.407 ratio

Single results of other studies
PhoQ, residues 284 288 289 292 302 303 HSSMNL
fold induction (PhoP, residues 12 14 15 18 19 MHTVL (Escherichia coli, UniProt P23836); Sort-seq, refers to: YFP reporter; E. coli; PhoQ-PhoP variant library, together with: 10 µM Mg2+; reference: high Mg2+ state, higher = stronger signaling): 0.517
